# Results pooled from the literature.
# Every numbered part comes from another study and shows a few of its results, in no order. Positions count from the first letter of the parent shown.

# Series 1
# Target: CCNF, cyclin fold, Cln2 fusion (human)
# Technique: yeast growth competition, sequencing
# Sample: yeast
# Notes: strong parent motif
# Baseline: not given
# Reading: higher = stronger binding
# Parent: RBL2 docking peptide (human); STTRRRLFVENDS
Substitution,normalised enrichment score
T3D,0.918
T3V,10.1
F8S,1.76
S1I,7.84
R4H,6.26
S13K,7.96
D12K,7.77
R4F,4.8
E10D,9.16
R4D,-0.221
R6P,4.45
S1N,7.66
D12Q,8.03
R6Y,2
T2W,7.4
E10P,8.63
F8D,2.32
V9L,9.75
S13L,9.01

# Series 2
# Target: RNA binding protein fox-1 homolog 2, RRM domain, GST-SBP tag (RBFOX2, Homo sapiens, UniProt O43251-10, residues 100-194)
# Technique: RNA Bind-n-Seq
# Molecule type: RNA
# Sample: in vitro
# Concentration: 365 nM
# Notes: natural RNA segment, single round, ends assumed
# Baseline: no-protein control
# Reading: higher = stronger binding
# Constant ends, left off below: GGGAGUUCUACAGUCCGACGAUC … UGGAAUUCUCGGGUGCCAA
# Target sequence (chain): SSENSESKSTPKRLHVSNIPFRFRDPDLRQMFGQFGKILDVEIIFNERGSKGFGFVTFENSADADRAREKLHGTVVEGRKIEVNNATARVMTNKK
Strand,RBNS enrichment (R)
CUGGGAGGGUCACCAGGUCCCUUUUCCUUCCUGUGCCCUCUGAAAGCUAAGUGUCUGUGUGGCUGUGGAGCUCGAGGGUCUGUGAAUAAAGGCGGCGGCACUGGGCGUGG,1.41
CAAGUUGGGCAGGAUAUGGCCUACUUCCAUAGGCUUUUCUUUUUUCAGGUUUGAUGUAAGCAUGGGCUUACAUCCCCCAGGUACAUACUUUUACUUAUUGUGGGAUAACC,0.261
UGGGAAGUUCUUUUAAAUCAUACUAUUAAGACGACCAUCUCUUCUGUUAAAUUGCAGUACGUGUUAUAGACCACUCAGAUCAAGCCUCUACUCCCUCUGAGAGUUUUCAA,0.381
CUUUGAGCUUGUAACCUAGCAGCUGGGGCCAGUGAGAGGUGACUCAGACACUCCUGCCUCAGUUUCUUAGAACAGUGUUGCUAUUGAUGCUUAAGAAUAAUUGCCUCUUG,0.308
GGCUCCUGGUGAAGAGAGGGUGGAAAGGCCCUUCAGCCCCAGGGCCAUGUCUGGGUUCUCCAUGCCCAUCAGUCUCUGCAGUUUCUCUACCUGCCCCCAGAGCUGAGGCC,0.337
GCCGGCCCUGUCAUGCGCAGGUUUUCCACUCAUCUGAGGAAGAGCCAGGGCUCUGAAUUUAGCCUAACACUCAUCUUGGCUGUGGGCUUGGGAAGAAAUGGCCAUUAUUU,0.368
CUGCUGCCCCCUCCACCCCCAACCCAGUCCUACCUGUCACACCGGACGGACCCGCUGUGCCUUCUACCAUCGUUCCACCAUUGAUGUACAUACUCAUGUUUUACAUCUUU,0.632
UUCUAAUUAUGAAGAGCGUACCAGAAGUCUGUAUGAUAUUAGUGUCAUAUUUCAUUCAAAUGCCAAUUAAUAAAGCAAAGCUGACUGAAGUUGCCUCCCCUGGUGUUCCA,0.171
CGGCGGUGGUGCAGAAGAGAGCCAGUGGCCAGUGACCACACAGCUCCUCCAUGCCUGACCAACAGGCCCAGCUUUCCCUGCCAGGCCCUUUGCACUGAGGACACAGAUCC,0.195
CAAUAAGCUCGUGUCGUCUGUCAGAGCCCCUCUCUCAACUCUGUGACCUGAUAAUGUUUCUAAGAAAAAGAAAAAAAGGACAAAAGGGAGGGAACCACUACCAAAAAAAA,0.546
UGACUCUCGUGCACAGACAGCAUGCAGCAUACAGACUGAAACUGUGCUCUGCCGAGUAGAAAGUAGGUAGGGUCUGAAGGUGUCGAGAAGGCCUUACCUGUGGUGUGACA,3.33
UACAGGAUCAUGUUGGCAUUUACUAUCAUGUCUUUAUCAUAAACCAUGUUUGUUUGAGGUAGAAGAAUCACCAUAUAAUUCGUUGCCCAAAUUGGGACUAUUGAGAGAGA,0.418

# Series 3
# Target: RING finger protein unkempt homolog, zinc fingers 1-6, SBP tag (UNK, Homo sapiens, UniProt Q9C0B0, residues 30-357)
# UniProt Q9C0B0, sequence (30-357, looked up): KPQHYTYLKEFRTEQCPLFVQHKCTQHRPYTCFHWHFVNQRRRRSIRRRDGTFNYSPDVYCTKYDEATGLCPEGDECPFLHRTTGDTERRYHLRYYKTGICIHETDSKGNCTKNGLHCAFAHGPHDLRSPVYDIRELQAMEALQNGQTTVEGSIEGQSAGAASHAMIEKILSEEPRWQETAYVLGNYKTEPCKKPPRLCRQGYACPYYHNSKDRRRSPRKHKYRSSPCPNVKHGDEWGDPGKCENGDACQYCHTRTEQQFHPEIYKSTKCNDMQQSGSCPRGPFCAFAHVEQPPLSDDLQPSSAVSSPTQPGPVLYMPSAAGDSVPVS
# Technique: RNA Bind-n-Seq
# Molecule type: RNA
# Sample: in vitro
# Concentration: 100 nM
# Notes: RNA with constant flanks, vertebrate orthologous sites, ends assumed
# Baseline: input RNA pool
# Reading: higher = stronger binding
# Constant ends, left off below: GGGAGUUCUACAGUCCGACGAUC … CAACAGAGGAUUGAGCAUCA
Strand,bound/input enrichment [ratio]
CUACUAUAAACAACUCAGGGCAGUAUUCUCGAUAUCCUUACAGUAACCUUAAUCAGGGAUUAGUUAAUAAUACAGGGAUGAAUCAGAAUUUAGGCCUUACAAAUAACACUCCGAUGAAUC,1.14
AGUACUUAAGCCAACACCUAGUUCUAAAAUGCUAUUUAUUUGUGUCUGUAAGUUUGUACAUAAUAAUACCAACCUCAUUUUUGUUGUGGGGGGGUGGGUUUUGUUUUUUGGGUUUUUUUU,0.779
UUUUUUUUUUUGCACAUGACAGUGUUUGUAUUGAGGAUCUUCUGAAGAAGAGGGGUGCUGUGGCAGUGGCGCCUGGGUGCCUGGCCUCCAGUGUCCCACCCCCUUCACCACCCCACUUGG,0.308
CAGCAGAUUCUCUCAUAGGGAGAGCUGCACACAUUGCUGUUCUUGAUUCAGAAAUAUUUUUAGAAAAAUUCUUUCUUGUUGCUGCCCUGAAAUAUUUUCAGUAGAGAAAAGCAUUGUCGG,0.363
GUUGCGACCCAUUUAACAUACAUAAAAAGCUGGCCAAAAAGAACCUGCAUGUCAUUGACUUGGACGAUGCCACUUUUCUGAGUGCAAAAUUCGGAAGGCAGCUGGUGCCUGGUUGGAAGC,0.4
GUGAGGGUCUACUGACCACUCACUGUUAUGUCUGGUAUCUGUAAACACUCUUUUUGUUCUUAGUCUUUUUCUUGUAUAAUUGAUGUUCUUUAAAAUUGUUAAUGUAUAACAGGGCUUAUG,1.94
AGCUUCUGGCGACAUUUGGCCUGGCCUUUCAGCCUAUGAUAACAGUCCAAGGUCACCCCAUAGUCCUUCCAUUGCCUCCCCACCUAGUCAGAGUUCAUCUUGCUCUGAUGCCCCUCUGCU,0.754
AUCCCAGUUUGUAUGCACAUUAUUCACAUUCCUAUCUGUUGUGUUUGCAGAAAUGACAUUUUACCCUUUUCUAAGGGUUACUUUACAAUUUUCAUAUUAUUUGGUUGCAUGAAGUUGCCC,0.461
UUAAAGCCAUUUUUUCAUGUUUCCUGUAAAUAAUGGAUAAUCAUUUUUUAUUUUAUUUUUAAGUGCUGUUUUAACAACGUGGAUAGACUGUAAAUGUACUUGCUGAAUUCAUUCGUUUUU,0.686
AAGUUAUUGCAAAAGAGCCAAGCAGUAGUAUUGUGGGGUUUUUUGUAAAUGUAAAAUACUUAGAUCCAGACUUUGUUUCCUUCUUCAAUUUUAAAAAUAAAAAAUACCUCAGUGCUAUGU,0.332
GUGUUGGUGCAGAGUGCUCUGUACCAGUGCUCAUCAUCCCUUCUUCAUACCAACGGUCCCUAGUUAUAGGAAUUUAAUAUUUUUAAAAGUUUUACAUUGCUGUAUAUUCAAAGAUUUGUU,0.588

# Series 4
# Target: Interferon regulatory factor 5, full length, phosphomimetic (IRF5, Homo sapiens, UniProt Q13568-2, residues 1-514, S451D/S453D/S456D/S462D)
# Technique: protein-binding microarray
# Molecule type: double-stranded DNA, one strand shown
# Sample: in vitro
# Concentration: 940 nM top
# Notes: 60-bp whole probe
# Added: salmon DNA 0.4 mg/ml
# Baseline: random background probes
# Reading: higher = stronger binding
# Constant ends, left off below: GCCTAGCAC … GTCTTGATTCGCTTGACGCTGCTG
Strand,fitted relative affinity [z-score]
GACGGTTTCGACACCGGGGACGTGCTA,7.21
GACGAACTGAGTTTCGGGACGTGCTAG,4.11
GACGGTTTCGGGACTGGGGACGTGCTA,6.47
GACGGACAGGACTATCGGGACGTGCTA,-0.713
AGACCATCCTGTATGGATGTGTGCTAG,-0.644
CTAGGACTGCTTCTCCTTTAGTGCTAG,-0.238
GGCCTTGGAGGGGGTGGGTGGTGCTAG,3.32
TCAAGTATGTTCACTATTACTGTGCTA,-0.0675
TCACCTTGGCCTCTAGGACTGTGCTAG,-0.566
GACGATTTCAGTATCGAGTCGTGCTAG,4.18
AGAAACTTTTTTCTGATTGAGTGCTAG,1.17
TCAGCTTTAGTCATTCACACTGTGCTA,-0.076
GACGGATTCGACTATCGGGACGTGCTA,0.0514
CTGGGCAGGATGAGTTCCAGGTGCTAG,0.577
TCACCTTGAGGTTTTCTCACTGTGCTA,0.27
CTCTGCTTCTGTATGGGCATGTGCTAG,-0.0231
GACGGTCCCCTACTGCTGACGTGCTAG,0.231
TTAGGTCTCGGTTTCGCTTAGTGCTAG,7.33
GACAGTTTCCTACTGCTGACGTGCTAG,1.43
GACGATATCAGTTTCGAGAAGTGCTAG,3.36
GAAGGACTGGGGACTGGGGACGTGCTA,-0.629
TCATCATTTTCTTTAACACTGTGCTAG,1.69
TCAGCTTTGCTTCCTGCACTGTGCTAG,-0.0753
TCACAACTCTGTTTTCGACTGTGCTAG,0.385
TCAACTCTGTTTTCGCTTACTGTGCTA,1.31

# Single results of other studies
Substance,target,assay,system,conditions,how to read,measurement,result
"PhoQ, residues 284 288 289 292 302 303 SIHLQL","PhoP, residues 12 14 15 18 19 SGWQI (Escherichia coli, UniProt P23836)","Sort-seq, refers to: YFP reporter",E. coli,"PhoQ-PhoP variant library, added: 10 µM Mg2+","baseline: high Mg2+ state, higher = stronger signaling",fold induction,21

# Repeated from above (series 4):
Strand,fitted relative affinity [z-score]
AGACCATCCTGTATGGATGTGTGCTAG,-0.644
GACGGTTTCGGGACTGGGGACGTGCTA,6.47
CTAGGACTGCTTCTCCTTTAGTGCTAG,-0.238
TCAAGTATGTTCACTATTACTGTGCTA,-0.0675
GAAGGACTGGGGACTGGGGACGTGCTA,-0.629
